Assay results from different studies.
A part holds a random share of what one study measured. Substitutions count along the parent as printed.

Set 1
Target: CCNF, cyclin fold, Cln2 fusion (human)
Method: yeast growth competition, sequencing
Medium: yeast
Notes: strong parent motif
Baseline: not given
Reading: higher = stronger binding
Quantity: normalised enrichment score
Starting sequence: viral docking peptide; YKVKRRLVFGADD; partner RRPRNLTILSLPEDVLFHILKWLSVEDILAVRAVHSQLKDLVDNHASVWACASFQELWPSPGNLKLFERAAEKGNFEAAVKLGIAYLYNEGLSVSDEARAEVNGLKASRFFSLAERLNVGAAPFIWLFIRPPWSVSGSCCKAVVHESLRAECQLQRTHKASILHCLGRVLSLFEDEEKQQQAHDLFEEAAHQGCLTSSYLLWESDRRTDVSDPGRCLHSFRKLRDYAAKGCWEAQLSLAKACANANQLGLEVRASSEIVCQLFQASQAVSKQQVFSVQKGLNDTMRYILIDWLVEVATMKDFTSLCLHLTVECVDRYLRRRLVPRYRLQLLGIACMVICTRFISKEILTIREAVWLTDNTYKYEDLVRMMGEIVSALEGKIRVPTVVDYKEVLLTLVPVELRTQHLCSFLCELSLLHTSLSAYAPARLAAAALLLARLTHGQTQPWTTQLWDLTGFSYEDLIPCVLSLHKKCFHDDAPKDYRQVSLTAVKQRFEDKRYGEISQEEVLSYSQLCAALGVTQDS
YYVKRRLVFGADD [K2Y]: 8.82
YKPKRRLVFGADD [V3P]: 8.82
YKVKRRLVFGTDD [A11T]: 8.86
YKAKRRLVFGADD [V3A]: 8.55

Set 2
Molecule: HSPD1 (Homo sapiens, UniProt P10809)
Method: cross-linking MS
Notes: hits only
Quantity: interaction screen
HSPA9 (Homo sapiens, UniProt P38646): cross-linked
ATP5F1A (Homo sapiens, UniProt P25705): cross-linked
LYRM2 (Homo sapiens, UniProt Q9NU23): cross-linked
PYCR2 (Homo sapiens, UniProt Q96C36): cross-linked

Set 3
Target: Mu-type opioid receptor (OPRM1, Homo sapiens, UniProt P35372)
Sequence of UniProt P35372 (whole entry, looked up): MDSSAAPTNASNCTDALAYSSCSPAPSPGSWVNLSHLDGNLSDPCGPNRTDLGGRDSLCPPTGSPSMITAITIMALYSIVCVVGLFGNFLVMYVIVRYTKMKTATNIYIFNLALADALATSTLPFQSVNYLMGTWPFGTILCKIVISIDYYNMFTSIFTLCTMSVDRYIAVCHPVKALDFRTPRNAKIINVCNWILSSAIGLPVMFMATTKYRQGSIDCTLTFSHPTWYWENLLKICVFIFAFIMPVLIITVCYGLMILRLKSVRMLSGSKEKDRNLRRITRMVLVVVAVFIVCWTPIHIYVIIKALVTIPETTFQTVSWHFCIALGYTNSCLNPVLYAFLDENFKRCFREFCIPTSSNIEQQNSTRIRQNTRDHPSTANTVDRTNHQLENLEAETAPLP
Observed: ligand displacement
Concentration: 10 µM
Quantity: inhibition
Cc1ccccc1Oc1cc(-n2c(=O)cc(C(F)(F)F)[nH]c2=O)c2ccccc2c1Cl: 20.9%
CCC(F)(F)c1cc(N2CCC(S(C)(=O)=O)CC2)nc2sc(C(N)=O)c(N)c12: 5.18%
N#CC1(c2ccccn2)CCN(Cc2cc(C(=O)N3CCCC3)c(=O)n3ccccc23)CC1: 35%
Cc1cc(Nc2nccc(C)n2)cc(-c2cnc([C@@]3(O)CC[C@H](C(=O)O)C(C)(C)C3)s2)c1: 17.3%
COc1cc(C(=O)O)ncc1C#Cc1ccccc1NS(=O)(=O)c1cccc2c(N(C)C)ccnc12: 35.4%
CC(=O)N1CCC(c2ccc(C(=O)NC3=NCCN3)cc2C(F)(F)F)CC1: -2.53%
O=c1nc(-c2ccccn2)sc2ccccc12: 3.52%
C[C@H](c1ccc(F)cc1)N(Cc1cccc(C(=O)O)c1)C(=O)c1cnc2ccccc2c1: 1.23%
CN1CCN(c2cnc3c(C4CCN(C(=O)c5ccc(OC(F)(F)F)cc5N)CC4)ncnc3c2)CC1: 13.2%
Nc1nc(NCc2ccccc2)nc(-c2ccccc2CO)n1: 11.9%
Cn1nc(C(=O)NCc2ccc(C(=O)O)cc2)cc1-c1ccc2[nH]ccc2c1: 2.9%
CNC(=O)Nc1ccc2c(c1)CC[C@]21OC(=O)N(CC(=O)N(Cc2ccc(F)cc2)[C@@H](C)C(F)(F)F)C1=O: -13.3%
O=C(N[C@H]1CCCCC/C=C\C2C[C@@]2(C(=O)O)NC(=O)[C@@H]2C[C@@H](Oc3ccncc3)CN2C1=O)OC1CCCC1 (some centres unmarked): -8.64%
CN(C)CC#Cc1ccc(OCCCc2sc(N3CCc4cccc(C(=O)Nc5nc6ccccc6s5)c4C3)nc2C(=O)O)c(F)c1: 15.4%
Cc1c(N2CCNCC2)nc2ccc(Br)cc2c1C(=O)NC[C@H](CCC(=O)O)c1ccccc1Cl: 40.9%

Set 4
Target: Runt-related transcription factor 3, Runt domain (RUNX3, Homo sapiens, UniProt Q13761, residues 53-186)
Sequence of UniProt Q13761 (53-186, looked up): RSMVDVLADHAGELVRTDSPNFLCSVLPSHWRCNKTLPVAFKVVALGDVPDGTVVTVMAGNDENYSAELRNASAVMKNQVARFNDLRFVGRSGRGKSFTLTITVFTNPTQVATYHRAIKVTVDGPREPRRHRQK
Method: protein-binding microarray
Form: hairpin DNA
Medium: in vitro
Concentration: not given
Notes: whole hairpin DNA, median over replicate spots
Baseline: not given
Reading: higher = stronger binding
Quantity: median fluorescence
GAGGCCCAACCGCAAGAGCCTCCTGGCTCTTGCGGTTGGGCCTCACACTC (5mC at 29): 9060 a.u.
GAGGCCTGTCGCGGTTGGCCTCCTGGCCAACCGCGACAGGCCTCACACTC (5mC at 37): 6150 a.u.
CTCAGTTCTGTGGGCTGGACTCCTGTCCAGCCCACAGAACTGAGACACTC (5mC at 15): 4240 a.u.
GAGGCCCACGCGCAACAGCCTCCTGGCTGTTGCGCGTGGGCCTCACACTC: 5540 a.u.
GGGGCCTGTCGCGGTTGGCCTCCTGGCCAACCGCGACAGGCCCCACACTC (5mC at 43): 6310 a.u.
GAGGCCTGCCGCGGTTGGCCTCCTGGCCAACCGCGGCAGGCCTCACACTC (5mC at 9): 5660 a.u.
GAGGCCCACCCGCAACAGCCTCCTGGCTGTTGCGGGTGGGCCTCACACTC (5mC at 9): 5490 a.u.
GAGGCCTGTCGCGGTTGGCCTCCTGGCCAACCGCGACAGGCCTCACACTC (5mC at 6): 6550 a.u.

Mixed results
SNRPC (Homo sapiens, UniProt P09234)  cross-linked residues (SNRPD3 (Homo sapiens, UniProt P62318); cross-linking MS; cells; together with: BSPNO): K52 to K78

Some of these lines once more (set 4):
GAGGCCCAACCGCAAGAGCCTCCTGGCTCTTGCGGTTGGGCCTCACACTC (5mC at 29): 9060 a.u.
GAGGCCTGTCGCGGTTGGCCTCCTGGCCAACCGCGACAGGCCTCACACTC (5mC at 37): 6150 a.u.
